Measured values of several laboratories.
Every numbered part comes from another study and shows a few of its results, in no order. Changes are numbered by the printed parent chain.

Sample 1
Target: CRIPT, C-terminal peptide
Technique: DHFR complementation, deep sequencing
Sample: yeast
Setting: single substitutions, model-inferred values
Baseline: wild type
Direction: higher = weaker binding
Starting sequence: ERBIN, PDZ domain 1 (human); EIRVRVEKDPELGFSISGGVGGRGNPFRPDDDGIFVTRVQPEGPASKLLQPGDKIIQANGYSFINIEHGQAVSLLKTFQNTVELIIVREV; partner TKNYKQTSV
Change | binding free energy change [kcal/mol]
R3G | 0.175
D31Y | 1.44
V6D | 0.527
V20S | -0.0799
D30E | -0.0247
L49Q | 0.739
Q70M | 0.0434
G24Y | 1.58
V82G | 0.709
N65W | 0.16
T81F | 0.281
V20R | -0.0473

Sample 2
Target: CCNA2, cyclin fold, Cln2 fusion (human)
Technique: yeast growth competition, sequencing
Sample: yeast
Setting: weak parent motif
Baseline: not given
Direction: higher = stronger binding
Starting sequence: PKN2 docking peptide (human); DSTVTKLDFDLEP
Change | normalised enrichment score
DSTVTKLDADLEP [F9A] | -0.531
DSTVTKLDFALEP [D10A] | -0.518
DSTVTKLAFDLEP [D8A] | -0.395
DATVTKLDFDLEP [S2A] | -0.335
DSTVAKLDFDLEP [T5A] | -0.423
DSTVTKLDFDLAP [E12A] | -0.489

Sample 3
Target: RING finger protein unkempt homolog, zinc fingers 1-6, GST-SBP tag (UNK, Homo sapiens, UniProt Q9C0B0, residues 30-357)
Sequence of UniProt Q9C0B0 (30-357, looked up): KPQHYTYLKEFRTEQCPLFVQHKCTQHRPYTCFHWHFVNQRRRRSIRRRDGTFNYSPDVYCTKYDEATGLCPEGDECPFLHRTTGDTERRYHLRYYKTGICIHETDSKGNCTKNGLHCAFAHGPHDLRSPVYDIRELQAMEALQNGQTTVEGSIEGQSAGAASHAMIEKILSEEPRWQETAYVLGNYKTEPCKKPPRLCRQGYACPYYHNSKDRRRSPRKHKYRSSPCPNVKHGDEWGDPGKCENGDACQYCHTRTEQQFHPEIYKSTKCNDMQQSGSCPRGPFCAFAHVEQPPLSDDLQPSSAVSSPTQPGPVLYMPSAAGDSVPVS
Technique: RNA Bind-n-Seq
Molecule type: RNA
Sample: in vitro
Concentration: not given
Setting: RNA with constant flanks, human-mouse chimeric sites, ends assumed
Baseline: input RNA pool
Direction: higher = stronger binding
Shared flanks, not repeated: GGGAGUUCUACAGUCCGACGAUC … CAACAGAGGAUUGAGCAUCA
Oligonucleotide | bound/input enrichment [ratio]
GAAUCCUACUCAGGCGGAUUUUGCAACACCAAGCUCACAGCAGCAGCAUCUUAGUCACAGUAGGGUAGUUUUGGGGCUCUGUGGCCAUGGUUUUACUCACAUGCAGGUUUUGAAAAUGUA | 0.663
AAAGAGUGGAUAGAAUGUGCACACGGGAUCGGUGGGACCCGGGCGAAAAAGGAGUGCAAGAUAGAGUUCGAUGACUUCGAAGAGUGCUUGCUUCGGUAGAAAACGAUGAGGCGAAUGCAU | 0.471
AUGGAACAUUUCGAUGCAUCACUUAGUACCUAUUUCAAGGCCUUCCUGGGCCCCCGAGAUACAAGAGUCAAAGGAUGGUUCCUCCUGGACAAUUACAUCCCUACGUUUAUCUGCUCUGUU | 0.29
AAAGCCCAAGUAUUUUGAAAAAACUCGAACAGAUUUAACAAGGGUAGCCAGCUUGGAGUCUAGCAACUUGCCAAUGUGUUUACCAAUCUGGGGGCUUGUUUUUCUUUCCCUUCCUUAAAU | 0.362
CAGCUGCGAGGCCGCGGUUUCCCCCUGGGCCUCCCCAGCCGCCGCCAUGGGCAUCAAAUUUUUAGAAGUUAUCAAACCAUUCUGUGCAGUUCUACCAGAAAUUCAGAAACCGGAAAGGAA | 0.72
UUGAAAACUGAUUCAAGUAAGUUUGAGUAUCACAAUGUUAGCUUUCUAAUUCCACACAAGUACUUGGUUUUUACAGUUUAUAAUCUGACAUCACCCCAGCGCCAUUUGUAAAGAGCAACU | 0.56
GUGACUGGUGUUAAGAUUUCCCCUCAGCAAAGAAGUGCAGUAGUCACCAUAAUUCCAUCUGUGGUGAGUGCCAGUCAGAUUGUGGAGCUGGUUCCAGACCUCAGUUUAGACAUGGGAACU | 0.159

Sample 4
Target: RNA binding protein fox-1 homolog 2, RRM domain, GST-SBP tag (RBFOX2, Homo sapiens, UniProt O43251-10, residues 100-194)
Technique: RNA Bind-n-Seq
Molecule type: RNA
Sample: in vitro
Concentration: 365 nM
Setting: natural RNA segment, single round, ends assumed
Baseline: no-protein control
Direction: higher = stronger binding
Shared flanks, not repeated: GGGAGUUCUACAGUCCGACGAUC … UGGAAUUCUCGGGUGCCAA
Residues (chain): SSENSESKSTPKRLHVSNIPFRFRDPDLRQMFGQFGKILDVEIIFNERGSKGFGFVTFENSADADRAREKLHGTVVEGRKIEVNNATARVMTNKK
Oligonucleotide | RBNS enrichment (R)
CUAAGCUGAAAAGCACUCUUGUCAGAAUUUAGACCUAACUAAGAUUCAUCAGUUCCUAACCUACUCUGCAGAACUGCAACAGUUCGCUCAGGCCAGUGUUGAAACUUUCA | 0.157
GUUCAUCAGCUUAGGUCAUUUGAAAGAUAUAAGAGCUUAAGGCAAGAAAGAAAUAACAUGGAAUUCUAUUUGAAGGACAACAGAACAUUCUUGGAAAAGCAGCUCCAGUU | 0.324
CAUGUACUAGUGGAAAAGUCUAGUGAAAAGGGCAGAAUCUGCAGCUGUAACAAAGCUAAGAACAGCACUUGACUAGUUUGGGCCCAAUCCCUGAUCUGAGUUGAUUUGUU | 0.388
GAACCCAAACUACUUUAGUCCCUAGAAAAGUUUCUGCUCAGAACUGAGGAUGGAAAGAGCCGUAAUGACGUUGGCCUUGCCGUGUUCCUUCUCCUCAGCGCCACACUCAC | 0.335
AUUUAGGUCUCUAAACACAGACUUUUUAAAUUGCAACUGUAAAUAUGAAAUGGUCAUCACAUCUGACCUUGGUCAGUGGGGAGGGGAACUGGUAUCCUGCCAAGCCUGGU | 0.499
GGUGUGCGUCUGGGCACGUCCUGCACACACAAUGCAAGUCCUGGCCUCCGCGCCCGCCCGCCCACGCGAGCCGUACCCGCCGCCAACUCUGUUAUUUAUGGUGUGACCCC | 0.23
CUCUUAAUAGUUGUGUAUAAUGAAAACUGUAAACUUUUUUAAAUAAAAUGUGUAUAUACCUUGGCAAUGGCUGAACUUGAUCUAUCACAGCUGCCCCACGCACAUCCAAC | 0.885
CCUGGACAUGAAUGUAUUGUACACUGACGCGUCCCCACUCCUGUACAGCUGCUUUGUUUCUUUGCAAUGCAUUGUAUGGCUUUAUAAAUGAUAAAGUUAAAGAAAACUCU | 0.652
GGCUCUCAACUCAACUCCCUUUUUUAUUUAGUUCUAUUUGGAGGAGUUAUGUAUUUUUUACAUUAGUGCCAAGUAUAUAGAAGGAUGACAGCAAAAACAGUGCCUCUUUG | 0.87
GCAGCAAGCGGCUACCCCCCGAUCUGCAAAAGGGCCUCUCCCUUUGUGUUCUAUACAUUGUGAAUCUUCCCGUCUGAAGAACGCCCAGCCUGCCCAGACAAAGCCCCGCC | 0.956
CCUGUUACCAACUGCGCAGACAUCACACAAUCCGUGCCAUGUGAUUGAGAAAUGGAAAUGCCACCUCAACUUAAAUAAUCACAGUUGGUCAUUUAUGCCCACUUUAAAAU | 0.682
GACUCUGCUACAUACAGGGUCCAUGUGGGCUGAUAACUAGUACCAGGGGCCUGCUGCAUGCUACGCAUUGGGAUGGGUGCCCGACAUAAUACUGAAUCCUCAAGAAGCCU | 2.64

Sample 5
Target: Histone acetyltransferase KAT6A, winged helix 1, GST fusion (KAT6A, Homo sapiens, UniProt Q92794, residues 1-85)
Technique: protein binding microarray
Molecule type: double-stranded DNA, one strand shown
Sample: in vitro
Concentration: not given
Setting: 8-mer, flanks averaged, mean of 2 arrays, mostly near background
Baseline: not given
Direction: higher = stronger binding
Target sequence (chain): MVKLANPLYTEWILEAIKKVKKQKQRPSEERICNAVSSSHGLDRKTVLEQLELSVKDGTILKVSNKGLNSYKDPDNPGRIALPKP
Oligonucleotide | E-score
GGTCAAAC | 0.105
TCACAGCA | -0.0423
CAGTTTGG | -0.155
GCCAGAGA | -0.0945
AACGCGTA | 0.298
ACACGCGG | 0.329
AGTATGCG | 0.333
AACGAGTC | -0.0152
AATCGACG | 0.0325
ACCCCAAG | -0.131
GTACTCGA | -0.0339
TAGTAAGA | -0.0564
GAACTGAA | -0.0297
CAGAAGCC | 0.113
CAGTTTTC | -0.0792
AGAAAGTC | -0.0509
ATCGGGCC | 0.124
AGGGCAAC | -0.0355
AAAGGCGT | 0.0989
GACACTAC | -0.0951
CTTTGGTC | -0.194
ACTATGTC | 0.0722
CGGGCGGC | 0.442
CGCCTTAG | 0.184
ATTTTTCC | -0.0388

Sample 6
Target: Sal-like protein 4, full length isoform B (SALL4, Homo sapiens, UniProt Q9UJQ4-2, residues 1-616)
Technique: universal PBM
Molecule type: double-stranded DNA, one strand shown
Sample: in vitro
Concentration: not given
Setting: 8-mer, flanks averaged, mean of replicates
Direction: higher = stronger binding
Construct (chain): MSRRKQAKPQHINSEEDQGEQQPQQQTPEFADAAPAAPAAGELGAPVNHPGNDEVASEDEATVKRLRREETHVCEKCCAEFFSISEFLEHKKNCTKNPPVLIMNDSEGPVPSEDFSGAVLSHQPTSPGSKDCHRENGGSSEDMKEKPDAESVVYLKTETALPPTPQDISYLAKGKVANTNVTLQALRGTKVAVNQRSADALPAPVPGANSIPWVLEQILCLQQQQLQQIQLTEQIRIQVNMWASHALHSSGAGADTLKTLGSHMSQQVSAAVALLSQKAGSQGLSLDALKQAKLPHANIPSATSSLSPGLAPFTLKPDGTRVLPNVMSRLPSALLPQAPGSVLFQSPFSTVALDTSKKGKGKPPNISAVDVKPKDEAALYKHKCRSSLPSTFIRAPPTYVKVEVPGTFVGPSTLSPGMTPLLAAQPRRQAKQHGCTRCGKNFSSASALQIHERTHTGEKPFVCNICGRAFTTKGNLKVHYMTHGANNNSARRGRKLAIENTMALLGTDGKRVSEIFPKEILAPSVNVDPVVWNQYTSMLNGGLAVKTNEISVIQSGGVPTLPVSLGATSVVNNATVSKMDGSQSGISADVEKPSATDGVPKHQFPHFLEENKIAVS
Oligonucleotide | E-score
TACTGGAA | 0.0471
ATTTATGC | 0.351
CTCAGCTC | -0.313
GATAAACC | 0.0442
GTCCGCTA | -0.122
CGGCAACC | -0.356
GCATGATA | 0.295
GCAGCTTA | -0.174
GACACCTA | 0.101
AGTGTCTA | 0.103
CACATACG | 0.0647
GTCAAGGA | -0.114
AACGGACA | -0.0408
CTCCATCA | 0.0126
CTAAGTGA | 0.0397
CCGAAACA | 0.102
CGAACGTA | 0.0444
CAGACTGG | -0.0934
AAGAAGCG | -0.147
AGGATGTC | -0.101

Sample 7
Target: ABI1, truncated, D143A, DHFR fusion (Arabidopsis thaliana)
Technique: DHFR PCA, deep sequencing
Sample: yeast
Setting: methotrexate growth selection, single substitutions
Added: (+)-ABA 0 µM
Baseline: wild-type fitted maximum
Direction: higher = stronger binding
Starting sequence: PYL1, truncated, DHFR fusion (Arabidopsis thaliana); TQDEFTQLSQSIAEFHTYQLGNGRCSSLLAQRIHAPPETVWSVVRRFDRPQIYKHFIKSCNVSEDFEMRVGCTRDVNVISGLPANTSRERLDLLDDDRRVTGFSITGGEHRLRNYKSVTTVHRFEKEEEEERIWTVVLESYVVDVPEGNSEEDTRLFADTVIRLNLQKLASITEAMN
Change | relative binding score [%]
M176R | 8.54
D153I | -9.31
K54V | -0.366
I52M | 30
N22F | 12.8
T6K | 54.2
G102I | -0.411
A158N | 11.4
E129N | 25.8
V143T | 13.3
E174F | -12.7
N22R | 35.5
N165H | 5.78
E131G | 58.4

Excerpt of the above (sample 4):
Oligonucleotide | RBNS enrichment (R)
GUUCAUCAGCUUAGGUCAUUUGAAAGAUAUAAGAGCUUAAGGCAAGAAAGAAAUAACAUGGAAUUCUAUUUGAAGGACAACAGAACAUUCUUGGAAAAGCAGCUCCAGUU | 0.324
CAUGUACUAGUGGAAAAGUCUAGUGAAAAGGGCAGAAUCUGCAGCUGUAACAAAGCUAAGAACAGCACUUGACUAGUUUGGGCCCAAUCCCUGAUCUGAGUUGAUUUGUU | 0.388
GAACCCAAACUACUUUAGUCCCUAGAAAAGUUUCUGCUCAGAACUGAGGAUGGAAAGAGCCGUAAUGACGUUGGCCUUGCCGUGUUCCUUCUCCUCAGCGCCACACUCAC | 0.335
AUUUAGGUCUCUAAACACAGACUUUUUAAAUUGCAACUGUAAAUAUGAAAUGGUCAUCACAUCUGACCUUGGUCAGUGGGGAGGGGAACUGGUAUCCUGCCAAGCCUGGU | 0.499
GGUGUGCGUCUGGGCACGUCCUGCACACACAAUGCAAGUCCUGGCCUCCGCGCCCGCCCGCCCACGCGAGCCGUACCCGCCGCCAACUCUGUUAUUUAUGGUGUGACCCC | 0.23
CUCUUAAUAGUUGUGUAUAAUGAAAACUGUAAACUUUUUUAAAUAAAAUGUGUAUAUACCUUGGCAAUGGCUGAACUUGAUCUAUCACAGCUGCCCCACGCACAUCCAAC | 0.885
CCUGGACAUGAAUGUAUUGUACACUGACGCGUCCCCACUCCUGUACAGCUGCUUUGUUUCUUUGCAAUGCAUUGUAUGGCUUUAUAAAUGAUAAAGUUAAAGAAAACUCU | 0.652
GGCUCUCAACUCAACUCCCUUUUUUAUUUAGUUCUAUUUGGAGGAGUUAUGUAUUUUUUACAUUAGUGCCAAGUAUAUAGAAGGAUGACAGCAAAAACAGUGCCUCUUUG | 0.87
